Experimental data pooled from the literature.
A part holds a random share of what one study measured.

Study 1
Target: Histone acetyltransferase KAT6A, winged helix 2, GST fusion (KAT6A, Homo sapiens, UniProt Q92794, residues 85-181)
Method: protein binding microarray
Molecule type: double-stranded DNA, one strand shown
Sample: in vitro
Concentration: not given
Setting: 8-mer, flanks averaged, mean of 2 arrays, mostly near background
Reference: not given
Direction: higher = stronger binding
Residues (chain): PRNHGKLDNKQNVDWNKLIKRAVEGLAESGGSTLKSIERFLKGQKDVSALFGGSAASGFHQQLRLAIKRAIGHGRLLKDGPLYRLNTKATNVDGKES
Strand	E-score
GTCATAAA	0.0182
AAATAACT	0.0313
CCCAGCAA	0.136
GACACGAA	0.0712
CGTTAAGA	-0.0876
ATTGCGCA	0.0757
AGAACACC	-0.0257
AGTCCTAC	0.0563
ATAAGGAC	-0.0468
TGCTCTAA	0.0935
ACAAGCGA	-0.00846
ATTTGATA	-0.0414
AGGAGTTG	-0.152
CAGCAGAC	0.163
CTAGACTA	-0.213
ACCACAGG	-0.056
GCACTTGA	-0.111
AACTTACA	-0.0411
CAAAAGAG	-0.0817
CTGTCCCA	-0.0729
GTGGTGTA	-0.00585
CAGTTGGG	0.0757

Study 2
Target: Centromere-binding protein 1, full length, His-tagged (CBF1, Saccharomyces cerevisiae, UniProt P17106, residues 1-351)
UniProt P17106, sequence (whole entry, looked up): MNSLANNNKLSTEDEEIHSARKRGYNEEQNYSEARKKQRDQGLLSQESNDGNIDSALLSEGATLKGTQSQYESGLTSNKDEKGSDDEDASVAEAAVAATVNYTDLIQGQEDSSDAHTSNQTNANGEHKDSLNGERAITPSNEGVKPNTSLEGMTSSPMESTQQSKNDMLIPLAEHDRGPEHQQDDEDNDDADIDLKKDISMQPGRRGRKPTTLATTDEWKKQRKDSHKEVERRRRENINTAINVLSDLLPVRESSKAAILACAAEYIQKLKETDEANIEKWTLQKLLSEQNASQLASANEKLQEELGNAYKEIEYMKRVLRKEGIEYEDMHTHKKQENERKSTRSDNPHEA
Method: competition protein-binding microarray
Molecule type: double-stranded DNA, one strand shown
Sample: in vitro
Concentration: 2 µM
Setting: whole 60-bp probe, lowest competitor level
With: Pho4 competitor, 0.05 µM
Direction: higher = stronger binding
Strand	fluorescence intensity [a.u.]
CGGGGTTAAGTTTTTCACGTGACCTGCTTGCAGCAGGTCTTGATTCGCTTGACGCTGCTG	10000
AAAGCGGTAATTTGTCACATAACTTCACATATCTATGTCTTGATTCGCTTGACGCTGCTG	90
CTTGGAGCAAGCCTACACGTGTGAATATTCTACGGCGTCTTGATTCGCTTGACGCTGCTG	641
CTTCTGTAAATTTGCATGGTGGGTGGACGCGCCCCGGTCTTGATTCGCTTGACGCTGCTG	60.7
CTTTCCCGATCTTGCAAAGTGGGTGTAGCACATTTGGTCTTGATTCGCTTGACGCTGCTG	80.2
AAATTACTAAGTTGAATAGTGGGTGACGCCGTATGAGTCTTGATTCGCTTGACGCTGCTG	78.8
TTTTCAAGGTCTAGAAGCGTGCCGATATCATTCTGAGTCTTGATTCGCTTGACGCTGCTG	76.2
CATGGCCTCAATGGCCGCGTGTCCAGAGAGTGGACTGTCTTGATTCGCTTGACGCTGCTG	60.8
TGCTATCCCGGCGAGCCCGTGGCCGAGGACCTCGCTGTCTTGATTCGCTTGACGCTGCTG	42
TGCTGGCCAAACTGTGTCGTGGGACGCTGCTGTTGGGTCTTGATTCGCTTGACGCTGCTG	62.6
CCACTGCCACTATTGCACGTAACGCCATTTTTCCAAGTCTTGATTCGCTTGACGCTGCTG	76.8
AAAGCGGTAATTTGATCAGTGGGTGCAGATATCTATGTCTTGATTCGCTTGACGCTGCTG	104
CACCCGGAGTACCAAAACGTGACAAAGCAGTTTCCTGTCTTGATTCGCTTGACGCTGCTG	505
CTAACGAAGGTTTTTCACGTGGAATACAAGCCAAGTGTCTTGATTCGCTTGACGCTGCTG	639
ATACGGCAGCAGCCTTTCGTGCTTTCCGCCTATTTTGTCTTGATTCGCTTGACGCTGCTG	60
CAGCGGCTTTCTTTTCACGGGCTTCTCTTTCAGCTTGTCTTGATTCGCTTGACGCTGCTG	86.9
TCGTCCCGTACCGACCACGTGTTTTCCACCTGTAATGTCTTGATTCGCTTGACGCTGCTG	1590
CAATGCTTTCCCGGCCACGTCGACATGGAACATCTTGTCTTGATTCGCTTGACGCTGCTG	67.9
TGATGAGGACACCAACACGTGCAAACATGGTAGTGCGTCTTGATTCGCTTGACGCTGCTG	1340
GTACCAAGACATCCGCACGTGGAAGATGACGCCTGCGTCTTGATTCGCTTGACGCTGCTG	661
GGTTCTTCGTCTTTGCACGTGGTCGAAGAGGAACCTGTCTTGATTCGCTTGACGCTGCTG	2090
AGTAGTTTAAAATTTCACGTGTACTTTCCCTGTTTTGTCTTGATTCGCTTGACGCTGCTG	968
ATTGCTCATTGAAAGCACGTGTTCCTTCAAATGAGAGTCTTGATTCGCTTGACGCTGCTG	3400
GCAAAACGCCCCGCCCACGTGGAGTTGACAGTTAAGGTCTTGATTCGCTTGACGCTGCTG	427
GAAACTCATAGAGATGACGTGCCAGTTGGTTACGCCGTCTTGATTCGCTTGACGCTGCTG	64.1

Study 3
Target: RNA binding protein fox-1 homolog 2, RRM domain, GST-SBP tag (RBFOX2, Homo sapiens, UniProt O43251-10, residues 100-194)
Method: RNA Bind-n-Seq
Molecule type: RNA
Sample: in vitro
Concentration: 365 nM
Setting: natural RNA segment, single round, ends assumed
Reference: no-protein control
Direction: higher = stronger binding
Target sequence (chain): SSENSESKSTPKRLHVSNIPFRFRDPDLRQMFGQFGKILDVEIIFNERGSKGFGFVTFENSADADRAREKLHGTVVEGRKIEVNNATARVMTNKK
Strand	RBNS enrichment (R)
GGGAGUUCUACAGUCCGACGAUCCAUGCUUUCUGUUAUUAUCUUUCUUGAUACUUUCCAAAUUCUCUGAUUCUAGAAAAAGGAAUCAUUCUCCCCUCCCUCCCACCACAUAGAAUCAACAUAUGGUAGGGAUUUGGAAUUCUCGGGUGCCAA	0.685
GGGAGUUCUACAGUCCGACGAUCGAAUGAGAUGGGAAAGAGGUAACAAAAUAACCUGCUGCCACCUCUUCUCUGGGUGGCUCAGCAGGAGCAACUGUGACCUCCUCUCCUAAGGAGACGAAGACCUAACGGGGUGGAAUUCUCGGGUGCCAA	0.227
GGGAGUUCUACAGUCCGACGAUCUAAUGUGUUCCCUUUCCCACCCCUUGCCUGACCCUCAGGGAGUCAGCCUGCUUCCAUCCAUGGGUGGGAAGACUUCAGCACAAAGGAAAGACUAAUUCUUGUCAGGCAUUUGGAAUUCUCGGGUGCCAA	0.334
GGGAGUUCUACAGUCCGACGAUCUAACUCUGGUAAAGCAUCCUGUGGAGGGAGAGGAGAGCCCAGUCAUUUGCUUAGAUGGUGUUUGUGGGAUCACCUGCAGAUUUAAAGCCUACUCUGCCACAGACUCGAGUUGGAAUUCUCGGGUGCCAA	1.03
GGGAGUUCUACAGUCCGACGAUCUAUAUAUGGAUGGAUGUAAUAUAUGUAGAACACACACAUAGAUGUAUAUAGGAUACACACUCAUGUAUGUAAACGUAUACAUAUGUGUAUAUAUGAUACAUACACAUACAUGGAAUUCUCGGGUGCCAA	0.459
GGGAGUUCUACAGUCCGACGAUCAAAAAAAAAAAACUCUAUCUCUUGGAAGUAGCUGAGGUAACCUUCCAGCUCCCUGCACCCAGAGGGGGCCUUCUCACCUCUUCUCAGGAAGCAGCUACGACCCAUUGCCCUGGAAUUCUCGGGUGCCAA	0.512
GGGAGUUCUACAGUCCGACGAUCGAUGACAAGCUGUCUCCUGCGGAAGUGUAGCUUGUGGGUAUAGAGUUCUGUCUGCACCUGCCCUCUAGUGACCCUGGGCCUGUCCUCUGUAGAGACUCUGGUACAGAGGGUGGAAUUCUCGGGUGCCAA	0.426
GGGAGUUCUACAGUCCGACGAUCAACCCUCGUGCAGCUGAGCUGGGGCCGCCAAAGACCGGGGCUGCCAAAGGGGCAGAGGGUGGUGGAGAGGAGAGGGAGAAAGGGAAGUCCCAGGGCCCGGGGUCCACAGAUGGAAUUCUCGGGUGCCAA	1.3
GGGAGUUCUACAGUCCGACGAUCAGAAGGGGCAAAAACGUGACUAUUAAUGAUUGAUAAGCACCAGUGAAGAAGUUCUAACUUUUAGCAUGCUGCACAGAAACUGGUAUAACAUGCCUUCAGUAUACUAACACUGGAAUUCUCGGGUGCCAA	4.87

Study 4
Target: Sal-like protein 4, full length isoform B (SALL4, Homo sapiens, UniProt Q9UJQ4-2, residues 1-616)
Method: universal PBM
Molecule type: double-stranded DNA, one strand shown
Sample: in vitro
Concentration: not given
Setting: 8-mer, flanks averaged, mean of replicates
Direction: higher = stronger binding
Strand	E-score
AGCACGGA	-0.23
GATGGCGA	0.038
TCGCCCAA	-0.0887
AAGCGCAG	-0.238
CCAGATCA	0.0179
GCAGGAGA	-0.0694
ACGCGAAG	-0.0737
AGTGTCAT	0.17
ACCATACT	0.141
CAGGCAAG	-0.0614
ACGTATAC	0.191
AGACCCAC	-0.205
ACTTCAGA	-0.014
AAGGAGCT	-0.115
GTTCCAAA	0.0912
AGATAATC	0.153
CAGGGCAA	-0.107
TATCTGAA	0.141
AGAGACTC	-0.175
AGAGGGCG	-0.24
ATAAGTCG	0.0978

Some of these lines once more (study 4):
Strand	E-score
AGACCCAC	-0.205
ACGTATAC	0.191
CCAGATCA	0.0179
GATGGCGA	0.038
ACTTCAGA	-0.014
CAGGGCAA	-0.107
AGAGGGCG	-0.24
